Published values gathered from unrelated publications.
Numbered parts are unrelated; each lists some results of a single study.
Chain of UniProt P21709 (whole entry, looked up): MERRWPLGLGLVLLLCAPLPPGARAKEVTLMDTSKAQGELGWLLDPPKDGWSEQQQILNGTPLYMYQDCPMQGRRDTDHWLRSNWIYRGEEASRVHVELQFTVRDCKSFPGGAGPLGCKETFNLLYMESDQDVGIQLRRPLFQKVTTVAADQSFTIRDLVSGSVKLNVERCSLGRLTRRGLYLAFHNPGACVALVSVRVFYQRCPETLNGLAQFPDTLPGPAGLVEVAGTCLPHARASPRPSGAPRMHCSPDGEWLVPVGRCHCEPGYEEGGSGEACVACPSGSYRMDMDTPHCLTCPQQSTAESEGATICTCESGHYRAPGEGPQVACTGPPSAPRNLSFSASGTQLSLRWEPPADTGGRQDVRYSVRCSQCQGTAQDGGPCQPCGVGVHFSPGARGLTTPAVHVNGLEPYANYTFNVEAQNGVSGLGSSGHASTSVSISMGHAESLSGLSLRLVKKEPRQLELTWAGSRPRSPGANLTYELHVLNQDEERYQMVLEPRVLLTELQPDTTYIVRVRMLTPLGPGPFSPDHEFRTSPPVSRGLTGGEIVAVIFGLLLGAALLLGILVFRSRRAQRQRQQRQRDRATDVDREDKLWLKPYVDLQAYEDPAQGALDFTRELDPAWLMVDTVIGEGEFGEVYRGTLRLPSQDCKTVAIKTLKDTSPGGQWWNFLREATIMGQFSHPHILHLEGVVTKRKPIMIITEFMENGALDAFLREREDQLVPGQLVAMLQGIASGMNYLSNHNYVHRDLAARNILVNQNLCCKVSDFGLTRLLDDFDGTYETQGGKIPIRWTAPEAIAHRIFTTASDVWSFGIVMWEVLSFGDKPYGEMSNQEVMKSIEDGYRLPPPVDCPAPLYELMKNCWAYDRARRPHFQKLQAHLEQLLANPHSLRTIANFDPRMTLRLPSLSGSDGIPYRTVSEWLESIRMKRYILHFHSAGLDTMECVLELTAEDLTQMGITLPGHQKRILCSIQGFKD
Chain of UniProt P48730 (whole entry, looked up): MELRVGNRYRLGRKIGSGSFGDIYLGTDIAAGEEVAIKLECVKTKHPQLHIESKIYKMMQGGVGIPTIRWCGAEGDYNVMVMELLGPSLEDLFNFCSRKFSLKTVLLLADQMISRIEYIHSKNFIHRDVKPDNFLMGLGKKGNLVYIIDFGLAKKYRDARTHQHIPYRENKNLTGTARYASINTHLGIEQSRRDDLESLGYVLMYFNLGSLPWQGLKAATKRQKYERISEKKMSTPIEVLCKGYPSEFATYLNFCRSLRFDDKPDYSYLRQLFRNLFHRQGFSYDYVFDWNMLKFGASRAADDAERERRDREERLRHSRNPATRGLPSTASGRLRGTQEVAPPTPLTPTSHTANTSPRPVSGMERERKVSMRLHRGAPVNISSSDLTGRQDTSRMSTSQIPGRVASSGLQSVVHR
Chain of UniProt Q9NWZ3 (whole entry, looked up): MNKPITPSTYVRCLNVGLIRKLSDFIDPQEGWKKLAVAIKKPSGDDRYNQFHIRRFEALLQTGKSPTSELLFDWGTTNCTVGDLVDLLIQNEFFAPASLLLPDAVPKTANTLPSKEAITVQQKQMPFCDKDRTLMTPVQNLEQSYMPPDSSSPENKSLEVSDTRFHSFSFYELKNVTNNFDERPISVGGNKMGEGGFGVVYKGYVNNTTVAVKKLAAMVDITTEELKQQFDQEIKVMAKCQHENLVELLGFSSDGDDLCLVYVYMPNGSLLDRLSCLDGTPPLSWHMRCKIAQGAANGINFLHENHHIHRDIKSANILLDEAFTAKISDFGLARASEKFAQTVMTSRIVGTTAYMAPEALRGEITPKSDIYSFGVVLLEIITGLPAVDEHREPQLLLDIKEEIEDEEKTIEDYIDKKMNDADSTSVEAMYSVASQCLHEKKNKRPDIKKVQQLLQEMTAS
Chain of UniProt P21802 (whole entry, looked up): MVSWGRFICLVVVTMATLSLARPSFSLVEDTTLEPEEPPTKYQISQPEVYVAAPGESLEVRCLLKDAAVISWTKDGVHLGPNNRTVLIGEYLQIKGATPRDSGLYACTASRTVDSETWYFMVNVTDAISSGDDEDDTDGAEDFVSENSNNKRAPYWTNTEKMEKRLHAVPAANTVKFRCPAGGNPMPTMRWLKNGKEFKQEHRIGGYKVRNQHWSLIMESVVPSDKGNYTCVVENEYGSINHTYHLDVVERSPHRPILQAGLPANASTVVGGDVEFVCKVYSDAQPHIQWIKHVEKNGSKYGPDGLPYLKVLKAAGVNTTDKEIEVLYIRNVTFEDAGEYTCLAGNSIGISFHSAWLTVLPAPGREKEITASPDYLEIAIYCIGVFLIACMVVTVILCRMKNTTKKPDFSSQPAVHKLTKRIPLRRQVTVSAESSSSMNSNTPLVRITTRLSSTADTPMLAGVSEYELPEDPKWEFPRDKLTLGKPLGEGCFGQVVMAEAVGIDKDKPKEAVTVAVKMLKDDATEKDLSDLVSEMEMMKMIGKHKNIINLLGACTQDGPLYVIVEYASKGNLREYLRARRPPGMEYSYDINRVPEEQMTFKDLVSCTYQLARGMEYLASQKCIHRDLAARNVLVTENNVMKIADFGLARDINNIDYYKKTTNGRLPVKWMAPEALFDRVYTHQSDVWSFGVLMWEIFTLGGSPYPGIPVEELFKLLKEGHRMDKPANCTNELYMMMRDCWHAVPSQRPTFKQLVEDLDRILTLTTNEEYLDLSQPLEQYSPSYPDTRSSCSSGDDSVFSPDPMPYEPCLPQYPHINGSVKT
Chain of UniProt Q13976 (whole entry, looked up): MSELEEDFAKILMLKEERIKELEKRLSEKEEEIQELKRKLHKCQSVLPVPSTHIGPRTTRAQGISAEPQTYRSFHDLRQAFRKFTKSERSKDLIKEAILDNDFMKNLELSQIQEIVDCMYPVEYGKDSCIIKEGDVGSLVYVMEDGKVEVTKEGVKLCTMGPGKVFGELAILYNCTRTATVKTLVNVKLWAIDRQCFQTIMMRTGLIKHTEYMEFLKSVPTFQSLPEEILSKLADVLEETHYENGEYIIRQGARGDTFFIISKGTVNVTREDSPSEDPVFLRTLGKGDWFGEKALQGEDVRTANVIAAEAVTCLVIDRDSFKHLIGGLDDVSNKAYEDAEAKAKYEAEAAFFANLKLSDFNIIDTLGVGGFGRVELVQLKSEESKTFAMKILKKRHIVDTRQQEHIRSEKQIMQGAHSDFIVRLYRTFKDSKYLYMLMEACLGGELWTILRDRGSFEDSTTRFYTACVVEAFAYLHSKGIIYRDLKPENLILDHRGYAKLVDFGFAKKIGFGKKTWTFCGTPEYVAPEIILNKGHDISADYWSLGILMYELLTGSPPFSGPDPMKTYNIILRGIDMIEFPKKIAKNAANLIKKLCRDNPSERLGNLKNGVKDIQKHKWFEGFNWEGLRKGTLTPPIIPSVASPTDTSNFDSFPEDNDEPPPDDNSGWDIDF
Chain of UniProt O15264 (whole entry, looked up): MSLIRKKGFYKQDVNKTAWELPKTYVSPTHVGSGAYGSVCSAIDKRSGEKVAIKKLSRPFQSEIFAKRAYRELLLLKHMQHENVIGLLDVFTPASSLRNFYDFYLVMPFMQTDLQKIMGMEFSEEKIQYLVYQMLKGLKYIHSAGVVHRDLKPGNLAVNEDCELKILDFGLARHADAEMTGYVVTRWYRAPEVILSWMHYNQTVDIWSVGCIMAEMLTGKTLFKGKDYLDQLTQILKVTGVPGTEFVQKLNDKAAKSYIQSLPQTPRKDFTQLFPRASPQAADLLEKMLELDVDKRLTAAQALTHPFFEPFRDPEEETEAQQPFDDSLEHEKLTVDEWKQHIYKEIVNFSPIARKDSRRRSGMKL
Chain of UniProt P46734 (whole entry, looked up): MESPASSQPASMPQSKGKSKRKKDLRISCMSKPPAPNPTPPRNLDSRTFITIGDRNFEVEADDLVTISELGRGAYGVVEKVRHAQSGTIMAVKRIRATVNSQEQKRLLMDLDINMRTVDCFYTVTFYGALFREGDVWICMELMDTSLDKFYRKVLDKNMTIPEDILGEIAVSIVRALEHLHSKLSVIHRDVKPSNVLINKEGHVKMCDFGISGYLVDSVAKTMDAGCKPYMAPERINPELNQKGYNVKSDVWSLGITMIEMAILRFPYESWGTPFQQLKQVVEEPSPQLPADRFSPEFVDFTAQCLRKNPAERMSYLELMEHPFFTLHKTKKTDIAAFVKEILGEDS

Set 1
Target: Bromodomain-containing protein 4, BD1 (BRD4, Homo sapiens, UniProt O60885)
Observed: acetyl-histone H4 peptide binding
Method: AlphaScreen displacement
Concentration: 50 µM
`CC(C)Oc1cc(Nc2nc(N[C@@H](C)c3ccc(F)cn3)ncc2Cl)[nH]n1` gave an inhibition of 15.5%.
`NCCNc1nc(-c2ccccc2O)nc2ccccc12` has an inhibition of 32.9%.
With `CCN(CCN(C)C)Cc1c(-c2ccc(F)cc2)[nH]c2ncccc12` the inhibition was 6.95%.
`CC(C)n1cnc2c(NCc3ccccc3O)nc(NCCCO)nc21` gave an inhibition of 11.9%.
For `COc1cc(O)c2c(c1)oc(=O)c1c3cc(O)c(O)cc3oc21`, the inhibition was 23.9%.
For `NC(=O)c1ccsc1NC(=O)CSc1nnc(-c2ccco2)n1-c1ccccc1`, the inhibition was 23.5%.
The inhibition of `CC(c1ccccc1)n1c(=O)[nH]c2ncc(-c3cccnc3)nc21` (centres unmarked) is reported as 17.7%.
For `CCOc1ccc2nc(NC(=O)CCC(=O)O)sc2c1`, the inhibition was 3.2%.
`Cn1cc(C=C2SC(=O)NC2=O)c2ccccc21` gave an inhibition of 3.2%.
The inhibition of `Nc1ncc(-c2cccnc2)nc1-c1ccc(O)cc1` is reported as 15.1%.
`Cl.NCCNS(=O)(=O)c1cccc2c(Cl)cccc12` has an inhibition of 16.6%.
The inhibition of `O=C1Cc2c([nH]c3ccc([N+](=O)[O-])cc23)-c2ccccc2N1` is reported as 25.6%.
For `COc1ccc(-c2nnc3ccc(SCC(=O)Nc4cc(C)on4)nn23)cc1OC`, the inhibition was 12.7%.
The inhibition of `CC(C)CCN1c2nc(Nc3cc(F)c(O)c(F)c3)ncc2N(C)C(=O)C1C` (centres unmarked) is reported as 99.3%.

Set 2
SMILES: O=C(NCc1ncc(C(F)(F)F)cc1Cl)c1ccc2c(c1)C1(CCS(=O)(=O)CC1)[C@H](C1CC1)N2S(=O)(=O)c1ccc(F)cc1
Observed: cell-free assay
Method: competition with immobilised ligand
Concentration: 1 µM
For FGFR2 (Homo sapiens, UniProt P21802): remaining binding read 86%.
For FLT4 (Homo sapiens, UniProt P35916): remaining binding read 92%.
The remaining binding was 91% (Ribosomal protein S6 kinase alpha-4, C-terminal kinase domain (RPS6KA4, Homo sapiens, UniProt O75676)).
EGFR (Homo sapiens, UniProt P00533, del752-759) — remaining binding: 100%.
MAP2K3 (Homo sapiens, UniProt P46734) — remaining binding: 71%.
CSNK1D (Homo sapiens, UniProt P48730) — remaining binding: 85%.
It gave 100% for remaining binding (FGFR3 (Homo sapiens, UniProt P22607)).
The remaining binding was 100% (ROS1 (Homo sapiens, UniProt P08922)).
It gave 100% for remaining binding (MET (Homo sapiens, UniProt P08581)).
It gave 100% for remaining binding (EPHA1 (Homo sapiens, UniProt P21709)).

Set 3
Compound: C=CCc1ccc(O)c(-c2ccc(O)c(CC=C)c2)c1
ANO1 del476-501: Anoctamin-1 (ANO1, Homo sapiens, UniProt Q5XXA6, del476-501)
Chain of UniProt Q5XXA6 (whole entry, unmodified, looked up): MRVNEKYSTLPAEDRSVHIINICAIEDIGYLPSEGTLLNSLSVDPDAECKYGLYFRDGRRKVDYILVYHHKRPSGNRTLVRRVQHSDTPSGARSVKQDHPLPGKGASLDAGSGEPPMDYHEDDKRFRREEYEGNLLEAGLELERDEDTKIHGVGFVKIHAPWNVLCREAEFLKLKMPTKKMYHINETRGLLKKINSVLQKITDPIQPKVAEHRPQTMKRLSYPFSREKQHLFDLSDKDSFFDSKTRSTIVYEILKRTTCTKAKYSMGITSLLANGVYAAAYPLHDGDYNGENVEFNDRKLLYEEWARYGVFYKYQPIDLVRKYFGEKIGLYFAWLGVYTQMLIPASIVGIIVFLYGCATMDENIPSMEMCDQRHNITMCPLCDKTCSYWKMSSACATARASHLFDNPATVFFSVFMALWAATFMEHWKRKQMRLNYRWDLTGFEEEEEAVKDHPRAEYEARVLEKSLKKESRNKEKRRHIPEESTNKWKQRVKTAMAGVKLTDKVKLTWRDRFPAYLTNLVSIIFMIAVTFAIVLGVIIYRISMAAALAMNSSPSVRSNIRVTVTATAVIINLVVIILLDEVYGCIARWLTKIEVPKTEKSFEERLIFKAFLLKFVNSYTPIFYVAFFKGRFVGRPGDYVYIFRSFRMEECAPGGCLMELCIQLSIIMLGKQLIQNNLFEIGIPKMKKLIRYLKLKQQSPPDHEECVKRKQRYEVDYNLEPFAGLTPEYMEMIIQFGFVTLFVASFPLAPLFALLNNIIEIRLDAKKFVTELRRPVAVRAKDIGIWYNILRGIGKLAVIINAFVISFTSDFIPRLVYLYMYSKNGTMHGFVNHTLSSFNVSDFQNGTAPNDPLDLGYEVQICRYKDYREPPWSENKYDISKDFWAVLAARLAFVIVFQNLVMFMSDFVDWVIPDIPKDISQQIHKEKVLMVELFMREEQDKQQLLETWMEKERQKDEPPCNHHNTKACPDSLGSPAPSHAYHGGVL
ANO1 del476-501/F628A: Anoctamin-1 (ANO1, Homo sapiens, UniProt Q5XXA6, del476-501/F628A)
It gave -0.12 for normalized current (ANO1 del476-501; chloride current, whole-cell voltage clamp; 10 µM, wild type, I-V at -40 mV, added: 4 µM Ca2+).
The normalized current was 0.477 (ANO1 del476-501; chloride current, whole-cell voltage clamp; 3 µM, wild type, I-V at 60 mV, added: 4 µM Ca2+).
It gave -0.4 for normalized current (human TMEM16A K603A/E623A; chloride current, inhibitor, inside-out patch clamp; 10 µM, at -100 mV).
It gave -0.0027 for normalized current (TMEM16A (human) K603A/E623A; chloride current, inside-out patch clamp; 10 µM, membrane voltage 0 mV).
For ANO1 del476-501/F628A; chloride current, whole-cell voltage clamp; 30 µM, I-V at 0 mV, added: 4 µM Ca2+: normalized current read -0.0028.
It gave 0.451 for normalized current (ANO1 del476-501; chloride current, whole-cell voltage clamp; 3 µM, wild type, concentration-response at 60 mV, added: 4 µM Ca2+).
For ANO1 del476-501/F628A; chloride current, whole-cell voltage clamp; 30 µM, concentration-response at 60 mV, added: 4 µM Ca2+: normalized current read 0.303.
It gave -0.0779 for normalized current (ANO1 del476-501/F628A; chloride current, whole-cell voltage clamp; 100 µM, I-V at -40 mV, added: 4 µM Ca2+).
ANO1 del476-501/F628A; chloride current, whole-cell voltage clamp; 10 µM, concentration-response at 80 mV, added: 4 µM Ca2+ — normalized current: 0.61.
It gave -0.323 for normalized current (Anoctamin-1 (ANO1, Homo sapiens, UniProt Q5XXA6, del476-501/K629A); chloride current, inside-out patch clamp; 10 µM, membrane voltage -60 mV).
For Anoctamin-1 (ANO1, Homo sapiens, UniProt Q5XXA6, del476-501/R541A); chloride current, inside-out patch clamp; 10 µM, membrane voltage 100 mV: normalized current read 0.756.
For Anoctamin-1 (ANO1, Homo sapiens, UniProt Q5XXA6, del476-501/E649A); ion current, inside-out patch clamp; 10 µM, E623A mutant at -60 mV: normalized current read -0.427.
Anoctamin-1 (ANO1, Homo sapiens, UniProt Q5XXA6); chloride current, inhibitor, inside-out patch clamp; 10 µM, wild type at -80 mV — normalized current: -0.575.
It gave 0.0253 for normalized current (ANO1 del476-501; chloride current, whole-cell voltage clamp; 30 µM, wild type, concentration-response at 40 mV, added: 4 µM Ca2+).
For ANO1 del476-501; chloride current, whole-cell voltage clamp; 10 µM, wild type, concentration-response at 40 mV, added: 4 µM Ca2+: normalized current read 0.108.

Set 4
Structure (SMILES): O=c1cc(N2CCOCC2)oc2c(-c3ccccc3)cccc12
Observed: enzyme activity
Action: inhibitor
Concentration: 0.5 µM
Reference: control
The remaining activity was 96.9% (LRRK2 (Homo sapiens, UniProt Q5S007)).
For CSNK2A1 (Homo sapiens, UniProt P68400): remaining activity read 64.8%.
The remaining activity was 104% (MAPK12 (Homo sapiens, UniProt P53778)).
For EPHA5 (Homo sapiens, UniProt P54756): remaining activity read 113%.
It gave 98.9% for remaining activity (PLK2 (Homo sapiens, UniProt Q9NYY3)).
It gave 104% for remaining activity (CHEK1 (Homo sapiens, UniProt O14757)).
MAP3K10 (Homo sapiens, UniProt Q02779) — remaining activity: 90.1%.
KIT (Homo sapiens, UniProt P10721) — remaining activity: 92.9%.
The remaining activity was 96% (PRKCD (Homo sapiens, UniProt Q05655)).
It gave 95.1% for remaining activity (NEK4 (Homo sapiens, UniProt P51957)).
LYN (Homo sapiens, UniProt P07948) — remaining activity: 94.5%.
AKT3 (Homo sapiens, UniProt Q9Y243) — remaining activity: 102%.
PRKCI (Homo sapiens, UniProt P41743) — remaining activity: 99.5%.
For MAP2K6 (Homo sapiens, UniProt P52564): remaining activity read 97.5%.
PRKG1 (Homo sapiens, UniProt Q13976) — remaining activity: 105%.
For MAP4K2 (Homo sapiens, UniProt Q12851): remaining activity read 87.8%.
It gave 103% for remaining activity (Cyclin-dependent kinase 9, with cyclin T1 (CDK9, Homo sapiens, UniProt P50750)).
WNK2 (Homo sapiens, UniProt Q9Y3S1) — remaining activity: 110%.
It gave 93.3% for remaining activity (MAPK13 (Homo sapiens, UniProt O15264)).
It gave 103% for remaining activity (STK38 (Homo sapiens, UniProt Q15208)).
For MKNK2 (Homo sapiens, UniProt Q9HBH9): remaining activity read 103%.
For BTK (Homo sapiens, UniProt Q06187): remaining activity read 94.5%.
It gave 96% for remaining activity (IRAK4 (Homo sapiens, UniProt Q9NWZ3)).

Some of these lines once more (set 4):
PRKCI (Homo sapiens, UniProt P41743) — remaining activity: 99.5%.
For MAP2K6 (Homo sapiens, UniProt P52564): remaining activity read 97.5%.
PRKG1 (Homo sapiens, UniProt Q13976) — remaining activity: 105%.
For MAP4K2 (Homo sapiens, UniProt Q12851): remaining activity read 87.8%.
It gave 103% for remaining activity (Cyclin-dependent kinase 9, with cyclin T1 (CDK9, Homo sapiens, UniProt P50750)).
WNK2 (Homo sapiens, UniProt Q9Y3S1) — remaining activity: 110%.
It gave 93.3% for remaining activity (MAPK13 (Homo sapiens, UniProt O15264)).
It gave 103% for remaining activity (STK38 (Homo sapiens, UniProt Q15208)).
